# Measurements pooled from the literature.
# Every numbered part comes from another study and shows a few of its results, in no order.

# Study 1 — method: RNA Bind-n-Seq; form: RNA; medium: in vitro; tested at: 1 µM; notes: whole 134-nt RNA, ends assumed; added: 150 mM KCl; baseline: input library; reading: higher = stronger binding
# Target: Ras GTPase-activating protein-binding protein 1, C-terminal RGG region (G3BP1, Homo sapiens, UniProt Q13283)
# Chain of UniProt Q13283 (whole entry, looked up): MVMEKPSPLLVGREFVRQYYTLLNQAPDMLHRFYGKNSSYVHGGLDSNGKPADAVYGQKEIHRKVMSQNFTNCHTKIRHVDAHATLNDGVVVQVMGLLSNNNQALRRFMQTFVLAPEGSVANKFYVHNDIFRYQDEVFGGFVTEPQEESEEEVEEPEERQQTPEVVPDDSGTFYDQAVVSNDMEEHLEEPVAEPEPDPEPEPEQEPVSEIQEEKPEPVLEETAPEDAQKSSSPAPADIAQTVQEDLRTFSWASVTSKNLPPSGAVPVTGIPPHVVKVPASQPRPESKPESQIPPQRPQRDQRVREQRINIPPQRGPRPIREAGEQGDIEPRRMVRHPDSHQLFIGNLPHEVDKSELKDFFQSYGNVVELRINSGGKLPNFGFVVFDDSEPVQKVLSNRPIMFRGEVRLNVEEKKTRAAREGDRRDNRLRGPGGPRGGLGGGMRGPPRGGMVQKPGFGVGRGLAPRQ
Sequence,log2 enrichment
GGGAGUUCUACAGUCCGACGAUCUCAAGUCCUGUGCUACACAUCGUAUGUACCGAAUCGGUUUUUUUGGUUUGGUGGAAAGUAUUAUGUUACGCCGUUCGGAUCUGCACUUCCUGGAAUUCUCGGGUGUCAAGG,-1.4
GGGAGUUCUACAGUCCGACGAUCAAGUCCUGUGCUACACAUCGUAUGUACCGAAUCGGGUUUGGGAGGGUUUUUUUGGGAAAGUAUUAUGUUACGCCGUUCGGAUCUGCACUUUGGAAUUCUCGGGUGUCAAGG,1.01
GGGAGUUCUACAGUCCGACGAUCCCUCAAGUCCUGUGCUACACAUCGUAUGUACCGAAUCGGGGAGGGGAGGAGGGAAAGUAUUAUGUUACGCCGUUCGGAUCUGCACUUCCAUGGAAUUCUCGGGUGUCAAGG,0.391
GGGAGUUCUACAGUCCGACGAUCUGGGAGGUGGAUUUUGUUUAUUUUUUUAGCUCAUUUCCACGGGUGGGAAUUUUUUUUUAAUAUGUGUCAUGAAUAAAGUUGUUUUUGAAAUGGAAUUCUCGGGUGUCAAGG,3.5

# Study 2 — read-out: enzyme activity; mode: inhibitor; tested at: 20 µM
# Target: Replicase polyprotein 1ab, polymerase (rep, Severe acute respiratory syndrome coronavirus 2, UniProt P0DTD1)
Structure (SMILES),inhibition [%]
O=C(O)Cc1cccnc1C(=O)O,-9.37
COc1ccc(-c2cnc3c(-c4cccc5ncccc45)cnn3c2)cc1,-3.52
C[C@@H](O[C@H]1OCCN(Cc2nn(P(=O)(O)O)c(=O)[nH]2)[C@H]1c1ccc(F)cc1)c1cc(C(F)(F)F)cc(C(F)(F)F)c1,42.6
C/C(=N\N=C(N)N)c1cc(NC(=O)CCCCCCCCC(=O)Nc2cc(/C(C)=N/N=C(N)N)cc(/C(C)=N/N=C(N)N)c2)cc(/C(C)=N/N=C(N)N)c1,94.5
CC(=O)Nc1ccc(Cc2ccc(NC(C)=O)cc2)cc1,-2.97
CO/N=C(\N)c1ccc(-c2ccc(-c3ccc(/C(N)=N/OC)cc3)o2)cc1,3.94
CCCCCCCCCCCCCCCc1cccc(OCC(=O)NCCO)c1,-3.69
O=C(/C=C/c1ccc2ccccc2n1)c1ccncc1,1.59
Cc1cc2sc(NC(=O)Cc3ccccc3)nc2cc1Cl,-10.4
Cn1cc(C[C@@H](N)C(=O)O)c2ccccc21,-2.74
C=CCN1CCc2nc(N)sc2CC1,2.22
CCNC(=O)CC[C@H](N)C(=O)O,-0.45
O=C1c2ccccc2C(Cc2ccncc2)(Cc2ccncc2)c2ccccc21,-1.39
COc1ccc2cc1Oc1ccc(cc1)C[C@H]1c3c(cc4c(c3Oc3cc5c(cc3OC)CCN(C)[C@@H]5C2)OCO4)CCN1C,0.69
O=C(Nc1cccc(Cl)c1)c1ccccn1,-2.42
O=C(O)C(O)=Cc1c[nH]c2ccccc12,-0.16
COC(c1ccccc1)(c1ccccc1)[C@H](Oc1nc(C)cc(C)n1)C(=O)O,15.1
C1=Cc2cccc(OCC3CNCCO3)c2C1 (centres unmarked),-0.55
CCC1(c2ccccc2)C(=O)N(COC)C(=O)N(COC)C1=O,1.69
CCN1C(=O)CNc2ncc(-c3ccc(-c4nc[nH]n4)nc3C)nc21,1.51
COc1ccc(CNC(=O)c2cc(-c3cncc(C)c3)ncc2-c2nccs2)nc1OC,-2.53
CCCCC(=O)O[C@]1(C(=O)CO)CC[C@H]2[C@@H]3CCC4=CC(=O)CC[C@]4(C)[C@H]3[C@@H](O)C[C@@]21C,-7.95
C#Cc1cncc([C@@H]2CCCN2C)c1,-0.75
C=CCOc1ccccc1OCC(O)CNC(C)C (centres unmarked),1.2
N[C@@H](Cc1cc(-c2ccc(Cl)cc2Cl)cc(CP(=O)(O)O)c1O)C(=O)O,8.99

# Study 3 — method: RNA Bind-n-Seq; form: RNA; medium: in vitro; tested at: 365 nM; baseline: no-protein control; reading: higher = stronger binding
# Target: RNA binding protein fox-1 homolog 2, RRM domain, GST-SBP tag (RBFOX2, Homo sapiens, UniProt O43251-10, residues 100-194)
# Notes: natural RNA segment, single round, ends assumed
# All sequences stand within: GGGAGUUCUACAGUCCGACGAUC … UGGAAUUCUCGGGUGCCAA
# Residues (chain): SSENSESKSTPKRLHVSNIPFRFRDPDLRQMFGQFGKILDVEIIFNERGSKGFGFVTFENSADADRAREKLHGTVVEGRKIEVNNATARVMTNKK
Sequence,RBNS enrichment (R)
CAUGACCCCUAGGGAGCUCUGACUGAGGAGGGAGGGUUGCUUCAGUCAGUGGCUCAGAGAUAGGGCUGGGCAGACAUCUACCUUAGGUAAAGUGGCUCCAGGGACUUAAG,0.847
UUGCCACCUGGUACCUUAAACUCGGUGGCUAUUCCCAUUGCUGUGUUUUAUUUGUAUAGUCUUACGUUGAUAGACAGCCCCACUGGAAUUGACCAAUUGUCUACACAGCG,0.322
UGGCAGUUAAUUCACAGUUACAGAUAAUGCUUUUAUUUACAUAAAUAUACCAAGUAGUACCCUCUUAUUGUAUUCACUUCAUCUAUUUUCUUAGAAUACUUGCAAUUACU,0.737
ACCUGAGAAUGGCCGGAGACCUCAGAUAUGUGUCUCUGCCAGUUGACUGGGCUGGUCCCUCUCAUUUGUACAGUCUGAAUGACAGUUCUUCUUAUCAUUCAGACGUCCCU,0.207
GAGUGAAACAUUUUCCAAGGCCUUAUUUCUUUUUCAGAAUGCUUUAAGUGUUGAUUAUAUGUGCUGGGUCUCUAGAGAAGUUUUUAUUUGUUACAAUACUGCUGCUUUGA,1.23
GAAAUGCAUCCAUUCCUCAGGGACAGAGACACCUGCACCUCCCCCCACUGCAGGCCCCGCUUGUCCAGCGCCUAGUGGGGUCUCCCUCUCCUGCCUACUCACGAUAAAUA,6.41
CUUCCUGAAUGUUUGUGUGUGAACCCUUGUUUCCUCCAAAACAAACGACAGCAACGAAAACUCCUUAAUCAGAACACUGAUCCAAUGAGGAAUGGAGCUUGUUUCUGUGA,0.586
CCUCGCCCUCCAAACCAAGCAUUGAGGGUAACCCUCAGAACCCAUUCUCCUAUCUCCUAAAGUGUCGGGGAAAGUUACUGGCCUCUCUCAACAGGGCUCACUCUGAGCUC,0.305

# Study 4 — method: protein-binding microarray; form: double-stranded DNA, one strand shown; medium: in vitro; tested at: 2540 nM top; notes: 60-bp whole probe; added: salmon DNA 0.4 mg/ml; baseline: random background probes; reading: higher = stronger binding; all sequences stand within: GCCTAGCAC … GTCTTGATTCGCTTGACGCTGCTG
# Target: Interferon regulatory factor 3, full length, phosphomimetic (IRF3, Homo sapiens, UniProt Q14653, residues 1-427, S386D/S396D/S398D/S402D/T404D/S405D)
# Construct (chain): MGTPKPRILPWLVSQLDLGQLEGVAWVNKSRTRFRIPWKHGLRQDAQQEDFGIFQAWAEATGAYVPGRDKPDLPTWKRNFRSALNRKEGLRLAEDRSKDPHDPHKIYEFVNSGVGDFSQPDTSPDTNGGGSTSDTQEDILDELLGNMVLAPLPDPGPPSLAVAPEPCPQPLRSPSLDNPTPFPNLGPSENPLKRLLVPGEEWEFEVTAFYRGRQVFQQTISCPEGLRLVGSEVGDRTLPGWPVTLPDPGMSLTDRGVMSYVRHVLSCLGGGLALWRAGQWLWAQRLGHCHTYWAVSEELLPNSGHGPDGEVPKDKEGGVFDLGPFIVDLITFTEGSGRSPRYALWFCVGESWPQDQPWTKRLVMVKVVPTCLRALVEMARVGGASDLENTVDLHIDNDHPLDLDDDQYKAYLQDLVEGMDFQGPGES
Sequence,fitted relative affinity [z-score]
TCACCTCCAGGTTCTCTGACTGTGCTA,-0.372
TTAGATTTCGTGTATCGATTAGTGCTA,1.02
TTAGATATCGGGACTGGATGAGTGCTA,-0.0517
TTAGGACTGGGGTTTCGGTTCGTGCTA,3.52
AACGGACTGGGTTTCGGGACGTGCTAG,1.17
GACGGATTGGGTATCGGGACGTGCTAG,0.151
TTAGGTCGCGGTCTCGGTTAGTGCTAG,0.294
ACAACTAGGGAATTTAGAAAAGTGCTA,0.154

# Study 5 — cell line: HEK-293T/ACE2; tested at: concentration not given; time: 16 (unit not given); baseline: vehicle
Compound,viability [%]
O=C(O[C@H]1C[N+]2(CCCOc3ccccc3)CCC1CC2)C(O)(c1cccs1)c1cccs1,101
CNS(=O)(=O)Cc1ccc2[nH]cc(CCN(C)C)c2c1,97.8
C#C[C@]1(O)CC[C@H]2[C@@H]3CCC4=CC(=O)CC[C@@H]4[C@H]3CC[C@@]21C,101
CC(=O)Oc1ccccc1C(=O)O,102

# Study 6 — read-out: enzyme activity; mode: inhibitor; tested at: 20 µM; notes: hit confirmation
# Target: Replicase polyprotein 1ab, main protease (rep, Severe acute respiratory syndrome coronavirus 2, UniProt P0DTD1)
Structure (SMILES),inhibition
Cc1coc2c1C(=O)C(=O)c1c-2ccc2c(C)cccc12,1%
C=CC(=O)c1ccc2ccccc2c1,92.3%
O=C(Nc1ccc(Cl)c(Cl)c1)Nc1ccc(Cl)c(Cl)c1,45.1%
C[C@@H]1O[C@@H](Oc2c(-c3cc(O)c(O)c(O)c3)oc3cc(O)cc(O)c3c2=O)[C@@H](O)[C@H](O)[C@H]1O,77.9%

# Repeated from above (study 1):
Sequence,log2 enrichment
GGGAGUUCUACAGUCCGACGAUCCCUCAAGUCCUGUGCUACACAUCGUAUGUACCGAAUCGGGGAGGGGAGGAGGGAAAGUAUUAUGUUACGCCGUUCGGAUCUGCACUUCCAUGGAAUUCUCGGGUGUCAAGG,0.391
GGGAGUUCUACAGUCCGACGAUCAAGUCCUGUGCUACACAUCGUAUGUACCGAAUCGGGUUUGGGAGGGUUUUUUUGGGAAAGUAUUAUGUUACGCCGUUCGGAUCUGCACUUUGGAAUUCUCGGGUGUCAAGG,1.01
GGGAGUUCUACAGUCCGACGAUCUCAAGUCCUGUGCUACACAUCGUAUGUACCGAAUCGGUUUUUUUGGUUUGGUGGAAAGUAUUAUGUUACGCCGUUCGGAUCUGCACUUCCUGGAAUUCUCGGGUGUCAAGG,-1.4
GGGAGUUCUACAGUCCGACGAUCUGGGAGGUGGAUUUUGUUUAUUUUUUUAGCUCAUUUCCACGGGUGGGAAUUUUUUUUUAAUAUGUGUCAUGAAUAAAGUUGUUUUUGAAAUGGAAUUCUCGGGUGUCAAGG,3.5
